Assay results gathered from unrelated publications.
A part holds a random share of what one study measured.
Chain of UniProt P42685 (whole entry, looked up): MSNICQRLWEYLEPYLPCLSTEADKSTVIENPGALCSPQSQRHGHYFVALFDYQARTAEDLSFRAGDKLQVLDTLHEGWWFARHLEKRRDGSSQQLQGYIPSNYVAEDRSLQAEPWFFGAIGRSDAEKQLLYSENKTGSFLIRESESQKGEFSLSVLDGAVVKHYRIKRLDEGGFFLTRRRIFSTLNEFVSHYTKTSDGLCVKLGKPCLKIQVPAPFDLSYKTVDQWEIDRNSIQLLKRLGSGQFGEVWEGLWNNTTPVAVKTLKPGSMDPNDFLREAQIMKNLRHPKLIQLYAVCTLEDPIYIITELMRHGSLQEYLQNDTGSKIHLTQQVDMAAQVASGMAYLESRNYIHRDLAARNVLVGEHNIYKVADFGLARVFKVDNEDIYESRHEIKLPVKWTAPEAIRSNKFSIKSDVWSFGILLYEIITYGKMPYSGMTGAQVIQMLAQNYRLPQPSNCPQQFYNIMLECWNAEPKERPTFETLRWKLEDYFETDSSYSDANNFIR
Chain of UniProt P10398 (whole entry, looked up): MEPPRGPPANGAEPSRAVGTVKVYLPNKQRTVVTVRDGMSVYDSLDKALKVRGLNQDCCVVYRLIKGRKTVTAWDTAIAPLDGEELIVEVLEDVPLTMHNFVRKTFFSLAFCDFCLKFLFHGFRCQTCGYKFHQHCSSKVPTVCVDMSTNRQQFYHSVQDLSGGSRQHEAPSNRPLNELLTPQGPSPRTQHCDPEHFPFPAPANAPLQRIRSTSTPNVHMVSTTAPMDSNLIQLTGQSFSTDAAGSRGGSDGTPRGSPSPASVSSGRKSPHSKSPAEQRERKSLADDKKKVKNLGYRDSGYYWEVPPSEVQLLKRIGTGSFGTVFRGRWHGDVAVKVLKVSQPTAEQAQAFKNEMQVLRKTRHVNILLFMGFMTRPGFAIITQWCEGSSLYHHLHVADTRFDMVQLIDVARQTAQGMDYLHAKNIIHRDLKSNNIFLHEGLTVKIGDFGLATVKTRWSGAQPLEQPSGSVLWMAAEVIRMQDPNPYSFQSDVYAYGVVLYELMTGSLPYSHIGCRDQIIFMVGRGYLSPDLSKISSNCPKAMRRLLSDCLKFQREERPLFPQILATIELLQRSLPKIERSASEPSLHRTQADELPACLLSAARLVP
Chain of UniProt P52333 (whole entry, looked up): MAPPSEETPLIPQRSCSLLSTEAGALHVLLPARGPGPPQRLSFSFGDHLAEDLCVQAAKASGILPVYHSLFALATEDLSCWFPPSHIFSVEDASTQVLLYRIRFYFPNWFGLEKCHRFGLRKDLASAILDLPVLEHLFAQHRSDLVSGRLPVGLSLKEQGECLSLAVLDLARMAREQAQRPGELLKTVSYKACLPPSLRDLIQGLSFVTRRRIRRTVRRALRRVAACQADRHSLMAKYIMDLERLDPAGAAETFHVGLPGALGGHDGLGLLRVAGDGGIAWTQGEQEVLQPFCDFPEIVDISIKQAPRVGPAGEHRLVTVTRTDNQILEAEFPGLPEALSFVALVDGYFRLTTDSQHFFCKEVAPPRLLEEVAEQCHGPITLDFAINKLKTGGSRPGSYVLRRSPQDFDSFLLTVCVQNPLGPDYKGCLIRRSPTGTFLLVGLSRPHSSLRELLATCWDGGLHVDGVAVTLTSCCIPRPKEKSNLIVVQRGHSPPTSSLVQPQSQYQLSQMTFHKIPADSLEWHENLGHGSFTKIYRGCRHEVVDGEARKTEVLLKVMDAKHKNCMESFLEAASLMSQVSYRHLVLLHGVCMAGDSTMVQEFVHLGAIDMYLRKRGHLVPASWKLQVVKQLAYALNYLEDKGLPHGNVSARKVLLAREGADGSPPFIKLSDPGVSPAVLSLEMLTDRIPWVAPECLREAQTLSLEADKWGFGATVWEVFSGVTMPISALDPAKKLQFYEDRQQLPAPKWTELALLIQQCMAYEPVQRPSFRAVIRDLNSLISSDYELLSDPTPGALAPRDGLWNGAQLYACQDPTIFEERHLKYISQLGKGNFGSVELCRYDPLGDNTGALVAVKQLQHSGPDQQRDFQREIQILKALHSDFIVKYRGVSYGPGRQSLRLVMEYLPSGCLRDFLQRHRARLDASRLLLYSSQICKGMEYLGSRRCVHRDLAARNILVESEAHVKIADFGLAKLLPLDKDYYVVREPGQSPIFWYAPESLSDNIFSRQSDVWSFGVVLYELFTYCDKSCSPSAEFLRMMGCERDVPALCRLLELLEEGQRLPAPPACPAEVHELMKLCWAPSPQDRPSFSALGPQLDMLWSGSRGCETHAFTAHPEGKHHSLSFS
Chain of UniProt P06239 (whole entry, looked up): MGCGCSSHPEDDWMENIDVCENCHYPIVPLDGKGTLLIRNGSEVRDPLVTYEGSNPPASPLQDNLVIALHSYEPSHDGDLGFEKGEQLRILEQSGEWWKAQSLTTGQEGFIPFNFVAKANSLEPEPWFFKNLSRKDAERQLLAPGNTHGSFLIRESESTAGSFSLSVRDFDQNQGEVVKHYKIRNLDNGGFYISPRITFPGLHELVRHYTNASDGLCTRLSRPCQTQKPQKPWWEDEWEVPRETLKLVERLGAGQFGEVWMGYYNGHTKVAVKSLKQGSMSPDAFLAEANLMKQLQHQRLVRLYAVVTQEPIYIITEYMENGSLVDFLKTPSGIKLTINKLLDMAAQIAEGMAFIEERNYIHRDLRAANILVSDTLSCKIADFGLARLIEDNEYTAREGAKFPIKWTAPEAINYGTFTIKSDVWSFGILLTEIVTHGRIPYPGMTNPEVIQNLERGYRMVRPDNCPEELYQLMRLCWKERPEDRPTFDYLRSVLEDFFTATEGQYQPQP
Chain of UniProt Q8IYT8 (whole entry, looked up): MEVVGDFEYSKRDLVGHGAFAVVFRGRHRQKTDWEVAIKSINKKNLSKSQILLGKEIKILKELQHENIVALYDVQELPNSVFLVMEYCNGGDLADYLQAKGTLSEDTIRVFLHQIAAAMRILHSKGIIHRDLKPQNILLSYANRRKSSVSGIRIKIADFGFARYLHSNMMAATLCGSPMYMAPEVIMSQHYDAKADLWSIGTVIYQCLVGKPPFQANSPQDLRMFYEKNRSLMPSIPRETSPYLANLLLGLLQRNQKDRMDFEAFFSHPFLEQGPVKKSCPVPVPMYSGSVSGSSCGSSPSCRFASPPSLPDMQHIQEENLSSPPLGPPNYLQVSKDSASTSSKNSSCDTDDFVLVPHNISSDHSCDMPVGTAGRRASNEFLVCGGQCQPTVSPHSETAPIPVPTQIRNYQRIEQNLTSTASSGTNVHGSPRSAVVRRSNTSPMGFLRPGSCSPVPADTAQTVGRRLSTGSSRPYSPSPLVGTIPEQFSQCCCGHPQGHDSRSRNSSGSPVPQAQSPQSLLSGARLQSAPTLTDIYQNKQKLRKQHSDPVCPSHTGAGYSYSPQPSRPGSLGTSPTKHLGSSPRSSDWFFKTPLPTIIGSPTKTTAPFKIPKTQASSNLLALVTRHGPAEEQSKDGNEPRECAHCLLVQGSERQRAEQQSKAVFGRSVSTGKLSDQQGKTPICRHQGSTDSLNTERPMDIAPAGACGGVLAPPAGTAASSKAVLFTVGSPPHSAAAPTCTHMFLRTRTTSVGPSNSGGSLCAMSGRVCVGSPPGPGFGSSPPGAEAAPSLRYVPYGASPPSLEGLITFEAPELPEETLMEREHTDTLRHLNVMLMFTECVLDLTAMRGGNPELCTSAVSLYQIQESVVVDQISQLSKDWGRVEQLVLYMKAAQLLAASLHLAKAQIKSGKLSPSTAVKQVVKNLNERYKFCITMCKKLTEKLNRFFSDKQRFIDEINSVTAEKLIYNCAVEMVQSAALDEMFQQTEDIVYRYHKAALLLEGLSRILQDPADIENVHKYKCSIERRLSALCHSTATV
Chain of UniProt P22607 (whole entry, looked up): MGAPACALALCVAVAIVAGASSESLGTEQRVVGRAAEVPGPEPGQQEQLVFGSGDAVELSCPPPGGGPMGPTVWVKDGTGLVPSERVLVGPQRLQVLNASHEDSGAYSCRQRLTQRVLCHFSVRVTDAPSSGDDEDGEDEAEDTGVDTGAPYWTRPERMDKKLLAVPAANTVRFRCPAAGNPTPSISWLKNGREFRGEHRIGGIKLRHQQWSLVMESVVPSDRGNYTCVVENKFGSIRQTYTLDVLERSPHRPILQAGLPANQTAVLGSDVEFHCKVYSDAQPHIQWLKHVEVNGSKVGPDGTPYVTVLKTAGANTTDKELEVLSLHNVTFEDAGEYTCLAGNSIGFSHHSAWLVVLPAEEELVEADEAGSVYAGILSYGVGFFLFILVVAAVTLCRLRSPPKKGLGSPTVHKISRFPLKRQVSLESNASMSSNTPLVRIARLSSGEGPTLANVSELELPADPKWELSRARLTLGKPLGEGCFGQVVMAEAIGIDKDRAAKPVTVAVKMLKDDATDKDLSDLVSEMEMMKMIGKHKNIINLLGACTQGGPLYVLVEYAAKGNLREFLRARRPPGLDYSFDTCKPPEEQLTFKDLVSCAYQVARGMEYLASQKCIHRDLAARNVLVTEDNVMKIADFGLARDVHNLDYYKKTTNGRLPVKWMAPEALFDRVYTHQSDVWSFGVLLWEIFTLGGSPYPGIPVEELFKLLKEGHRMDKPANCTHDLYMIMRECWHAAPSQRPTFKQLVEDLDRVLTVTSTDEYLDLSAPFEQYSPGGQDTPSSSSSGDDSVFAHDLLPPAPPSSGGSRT
Chain of UniProt P27361 (whole entry, looked up): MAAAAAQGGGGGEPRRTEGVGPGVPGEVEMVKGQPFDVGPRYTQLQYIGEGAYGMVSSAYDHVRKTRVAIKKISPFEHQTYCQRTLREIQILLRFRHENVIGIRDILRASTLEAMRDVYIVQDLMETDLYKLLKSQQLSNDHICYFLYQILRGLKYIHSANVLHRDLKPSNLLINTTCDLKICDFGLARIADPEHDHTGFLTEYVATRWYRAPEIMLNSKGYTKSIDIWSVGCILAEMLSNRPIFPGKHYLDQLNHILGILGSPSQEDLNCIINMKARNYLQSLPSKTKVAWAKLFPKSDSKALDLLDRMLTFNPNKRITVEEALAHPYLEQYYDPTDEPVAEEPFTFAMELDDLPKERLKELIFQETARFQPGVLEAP

Sample 1
Target: Prothrombin, mature alpha-thrombin (F2, Homo sapiens, UniProt P00734)
Technique: aptamer microarray, sandwich
Molecule type: DNA with 2'F-ANA
Sample: in vitro
Concentration: 200 nM
Notes: whole 15-mer aptamer, many near background
Together with: Cy3 exosite-II aptamer, 400 nM
Direction: higher = stronger binding
Quantity: mean fluorescence intensity
Strand: GGTTGGTGTGGTTGG
2'F-ANA at 2 4 5 7 10 12 13 15: 48.4 a.u.
2'F-ANA at 1 5 6 8 11 12: 89.5 a.u.
2'F-ANA at 1 2 5 6 7 11 12 13 14 15: 51.3 a.u.
2'F-ANA at 12 14 15: 290 a.u.
2'F-ANA at 1 3 7 8 9 10 12 13 15: 175 a.u.
2'F-ANA at 1 2 4 5 6 12 14: 50.3 a.u.
2'F-ANA at 2 6 7 9 10 11 12 13 15: 106 a.u.
2'F-ANA at 2 3 4 5 6 9 10 11 12: 57.4 a.u.

Sample 2
Target: Max-binding protein MNT, bHLH-zipper, MAX partner unstated (MNT, Homo sapiens, UniProt Q99583, residues 220-300)
Technique: protein-binding microarray
Molecule type: double-stranded DNA, one strand shown
Sample: in vitro
Concentration: not given
Notes: k-mer, scored over probes, only values ≥0.25
Direction: higher = stronger binding
Quantity: E-score
Target sequence (chain): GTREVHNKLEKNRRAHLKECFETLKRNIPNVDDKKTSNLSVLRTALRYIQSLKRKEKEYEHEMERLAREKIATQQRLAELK
CACGTGTA: 0.495
CAGGGGCG: 0.29
CCCCACAC: 0.282
ATGTGTCC: 0.324
CGGGGAAC: 0.293
CGTGGCTA: 0.38
AACCATGC: 0.402
ACAACCCC: 0.286

Sample 3
Compound: C[C@H](c1ccc(F)cc1)N(Cc1cccc(C(=O)O)c1)C(=O)c1cnc2ccccc2c1
Read-out: cell-free assay
Technique: competition with immobilised ligand
Concentration: 1 µM
Quantity: remaining binding
EGFR (Homo sapiens, UniProt P00533, A750P/del747-749): 100%
FLT3 (Homo sapiens, UniProt P36888, K663Q): 100%
RIPK4 (Homo sapiens, UniProt P57078): 100%
LTK (Homo sapiens, UniProt P29376): 90%
CSNK1E (Homo sapiens, UniProt P49674): 100%

Sample 4
SMILES: CC[n+]1c(/C=C/N(C)c2ccccc2)n(-c2ccccc2)c2ccc(-c3nc4ccccc4s3)cc21
Read-out: enzyme activity
Action: inhibitor
Concentration: 0.5 µM
Relative to: control
Quantity: remaining activity
GRK7 (Homo sapiens, UniProt Q8WTQ7): 100%
LCK (Homo sapiens, UniProt P06239): 89.9%
ACVR1B (Homo sapiens, UniProt P36896): 110%
ARAF (Homo sapiens, UniProt P10398): 102%
FGFR3 (Homo sapiens, UniProt P22607): 88.4%
MAP3K14 (Homo sapiens, UniProt Q99558): 96%
FGFR1 (Homo sapiens, UniProt P11362): 97.4%
FRK (Homo sapiens, UniProt P42685): 97.1%
MERTK (Homo sapiens, UniProt Q12866): 96.5%
MAPK3 (Homo sapiens, UniProt P27361): 112%
JAK3 (Homo sapiens, UniProt P52333): 106%
EPHA3 (Homo sapiens, UniProt P29320): 99.4%
ULK2 (Homo sapiens, UniProt Q8IYT8): 109%

Some of these lines once more (sample 4):
EPHA3 (Homo sapiens, UniProt P29320): 99.4%
FGFR3 (Homo sapiens, UniProt P22607): 88.4%
MAPK3 (Homo sapiens, UniProt P27361): 112%
